{"data": "Measurements collected from several papers", "note": "A part holds a random share of what one study measured.", "UniProt O23661, sequence (whole entry, looked up)": "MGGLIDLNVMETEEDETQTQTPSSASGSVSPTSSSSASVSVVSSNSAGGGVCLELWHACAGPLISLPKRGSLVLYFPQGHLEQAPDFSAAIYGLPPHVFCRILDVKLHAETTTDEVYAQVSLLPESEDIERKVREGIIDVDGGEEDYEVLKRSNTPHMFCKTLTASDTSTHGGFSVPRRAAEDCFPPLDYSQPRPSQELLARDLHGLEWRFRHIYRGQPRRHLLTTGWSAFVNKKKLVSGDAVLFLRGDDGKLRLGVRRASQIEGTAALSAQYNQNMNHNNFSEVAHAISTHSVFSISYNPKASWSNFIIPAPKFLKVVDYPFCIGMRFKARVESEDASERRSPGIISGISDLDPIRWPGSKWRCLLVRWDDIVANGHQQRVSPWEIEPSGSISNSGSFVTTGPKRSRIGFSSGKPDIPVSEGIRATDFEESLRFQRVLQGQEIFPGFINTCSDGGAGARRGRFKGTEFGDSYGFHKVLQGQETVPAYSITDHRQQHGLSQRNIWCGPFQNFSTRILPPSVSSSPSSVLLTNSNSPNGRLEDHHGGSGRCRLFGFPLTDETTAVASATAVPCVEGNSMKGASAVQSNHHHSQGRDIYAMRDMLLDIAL", "UniProt Q9M1R4, sequence (whole entry, looked up)": "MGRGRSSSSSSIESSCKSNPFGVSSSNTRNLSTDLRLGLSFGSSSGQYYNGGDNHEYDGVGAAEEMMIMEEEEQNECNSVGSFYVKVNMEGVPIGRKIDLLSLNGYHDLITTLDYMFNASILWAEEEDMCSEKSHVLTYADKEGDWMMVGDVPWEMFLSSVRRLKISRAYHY", "UniProt Q93WC4, sequence (whole entry, looked up)": "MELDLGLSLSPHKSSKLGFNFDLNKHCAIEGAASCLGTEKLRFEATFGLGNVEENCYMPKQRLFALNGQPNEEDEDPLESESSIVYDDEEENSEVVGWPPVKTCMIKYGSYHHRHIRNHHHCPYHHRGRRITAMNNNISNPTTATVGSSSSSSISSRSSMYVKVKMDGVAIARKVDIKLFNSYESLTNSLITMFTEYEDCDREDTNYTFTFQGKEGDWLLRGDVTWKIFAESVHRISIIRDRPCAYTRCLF", "UniProt Q8H174, sequence (whole entry, looked up)": "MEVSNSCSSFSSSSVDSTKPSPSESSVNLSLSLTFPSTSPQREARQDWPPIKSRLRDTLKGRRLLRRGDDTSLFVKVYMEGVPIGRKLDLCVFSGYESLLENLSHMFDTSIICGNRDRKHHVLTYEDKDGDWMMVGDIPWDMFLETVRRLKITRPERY", "UniProt P93022, sequence (whole entry, looked up)": "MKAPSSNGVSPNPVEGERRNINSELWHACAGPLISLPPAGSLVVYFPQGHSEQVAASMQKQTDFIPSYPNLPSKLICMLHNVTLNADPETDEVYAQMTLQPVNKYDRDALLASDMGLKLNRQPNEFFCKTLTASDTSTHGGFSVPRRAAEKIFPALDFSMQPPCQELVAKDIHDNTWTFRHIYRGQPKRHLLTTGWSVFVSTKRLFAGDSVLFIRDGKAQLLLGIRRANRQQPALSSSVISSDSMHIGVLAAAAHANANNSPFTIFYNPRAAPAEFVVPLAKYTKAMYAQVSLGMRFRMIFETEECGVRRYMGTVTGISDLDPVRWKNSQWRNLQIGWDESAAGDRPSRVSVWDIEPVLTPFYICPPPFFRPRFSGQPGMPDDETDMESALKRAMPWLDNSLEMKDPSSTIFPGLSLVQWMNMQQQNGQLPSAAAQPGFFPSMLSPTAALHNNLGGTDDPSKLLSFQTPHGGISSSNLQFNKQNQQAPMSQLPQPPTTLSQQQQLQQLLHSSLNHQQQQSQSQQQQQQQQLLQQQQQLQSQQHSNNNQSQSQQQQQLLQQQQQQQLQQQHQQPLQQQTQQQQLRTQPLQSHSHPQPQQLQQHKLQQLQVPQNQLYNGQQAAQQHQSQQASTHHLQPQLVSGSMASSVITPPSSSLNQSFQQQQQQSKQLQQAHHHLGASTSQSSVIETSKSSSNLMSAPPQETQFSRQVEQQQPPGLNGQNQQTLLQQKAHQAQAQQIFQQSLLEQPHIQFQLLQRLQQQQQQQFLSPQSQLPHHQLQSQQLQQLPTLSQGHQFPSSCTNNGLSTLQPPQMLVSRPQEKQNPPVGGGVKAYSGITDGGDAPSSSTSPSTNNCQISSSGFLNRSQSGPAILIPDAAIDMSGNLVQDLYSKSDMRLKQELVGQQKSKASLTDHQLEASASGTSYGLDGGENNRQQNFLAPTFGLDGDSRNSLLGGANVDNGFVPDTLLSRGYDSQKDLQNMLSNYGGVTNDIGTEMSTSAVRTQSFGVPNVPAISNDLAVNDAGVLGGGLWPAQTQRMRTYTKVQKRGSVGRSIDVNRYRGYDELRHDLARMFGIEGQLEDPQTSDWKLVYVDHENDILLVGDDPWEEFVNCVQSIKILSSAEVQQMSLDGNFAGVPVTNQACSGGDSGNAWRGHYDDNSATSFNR"}
{"data": "Block 1", "target": "Interferon regulatory factor 7, full length, phosphomimetic (IRF7, Homo sapiens, UniProt Q92985, residues 1-503, S101K/S471D/S472D/S475D/S476D/S477D/S483D/S484D/S487D)", "technique": "protein-binding microarray", "form": "double-stranded DNA, one strand shown", "matrix": "in vitro", "concentration": "250 nM", "notes": "60-bp whole probe", "together with": "salmon DNA 0.4 mg/ml", "baseline": "random background probes", "direction": "higher = stronger binding", "shared flanks, not repeated": "GCCTAGCAC … GTCTTGATTCGCTTGACGCTGCTG", "Target sequence (chain)": "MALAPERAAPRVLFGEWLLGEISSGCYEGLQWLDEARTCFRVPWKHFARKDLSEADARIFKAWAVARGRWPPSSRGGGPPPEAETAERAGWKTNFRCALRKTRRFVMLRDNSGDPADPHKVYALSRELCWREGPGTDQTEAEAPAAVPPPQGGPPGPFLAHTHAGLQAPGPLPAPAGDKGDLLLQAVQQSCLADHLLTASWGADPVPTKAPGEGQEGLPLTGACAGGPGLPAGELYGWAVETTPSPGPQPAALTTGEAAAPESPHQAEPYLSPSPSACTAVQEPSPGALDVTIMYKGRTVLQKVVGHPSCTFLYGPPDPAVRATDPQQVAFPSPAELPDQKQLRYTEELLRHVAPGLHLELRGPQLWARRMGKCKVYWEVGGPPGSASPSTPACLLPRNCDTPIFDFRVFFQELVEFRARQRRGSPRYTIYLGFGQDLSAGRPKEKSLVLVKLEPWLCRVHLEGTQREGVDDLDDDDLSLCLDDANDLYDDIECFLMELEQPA"}
{"Strand": "TTAGATTTCGGGAGTGGATTAGTGCTA", "log fluorescence [z-score]": 0.052}
{"Strand": "GACCATATCGGGTTTCGAGACGTGCTA", "log fluorescence [z-score]": 2.83}
{"Strand": "AGGATCCAGCCTGCAACCTCGTGCTAG", "log fluorescence [z-score]": -0.283}
{"Strand": "TTAGGTCTCGGTCTCGGTTCGTGCTAG", "log fluorescence [z-score]": 4.44}
{"Strand": "GACGATTACAGTTTCGAGACGTGCTAG", "log fluorescence [z-score]": 3.39}
{"Strand": "TTAGATATCAATCTCGATTAGTGCTAG", "log fluorescence [z-score]": 0.312}
{"Strand": "TTAGGTATCGGGTTTCGGTCAGTGCTA", "log fluorescence [z-score]": 3.82}
{"Strand": "TATGCTTTCTTTAACTCATTGTGCTAG", "log fluorescence [z-score]": 0.337}
{"Strand": "TTAGAACAGGGGTATCGATTAGTGCTA", "log fluorescence [z-score]": 0.372}
{"Strand": "GACGATATCAGTTTCGCGACGTGCTAG", "log fluorescence [z-score]": 1.14}
{"Strand": "GACGGTATCGGGACGGGGGACGTGCTA", "log fluorescence [z-score]": 1.67}
{"Strand": "GACGGACTGGGGTTTCGGGAAGTGCTA", "log fluorescence [z-score]": -0.0171}
{"Strand": "GACGGTCTCCTTTTGCTGACGTGCTAG", "log fluorescence [z-score]": 1.55}
{"Strand": "GACGACATCAGTATCGAGACGTGCTAG", "log fluorescence [z-score]": -0.0315}
{"Strand": "TTAGGTTTCCTTTTCCGTTAGTGCTAG", "log fluorescence [z-score]": 6.49}
{"Strand": "GAATGTGTCTTAAATAGGAGAGTGCTA", "log fluorescence [z-score]": -0.213}
{"Strand": "TCAAATTAGAATTTAAAACTGTGCTAG", "log fluorescence [z-score]": 0.133}
{"Strand": "GACGGTTTCGACTTTCGCGACGTGCTA", "log fluorescence [z-score]": 10.3}
{"Strand": "TGATCTTCCTTCATGGCCTGGTGCTAG", "log fluorescence [z-score]": 0.552}
{"data": "Block 2", "target": "Histone acetyltransferase KAT6A, both winged helices, GST fusion (KAT6A, Homo sapiens, UniProt Q92794, residues 1-181)", "technique": "protein binding microarray", "form": "double-stranded DNA, one strand shown", "matrix": "in vitro", "concentration": "not given", "notes": "8-mer, flanks averaged, mean of 2 arrays, mostly near background", "baseline": "not given", "direction": "higher = stronger binding", "Construct (chain)": "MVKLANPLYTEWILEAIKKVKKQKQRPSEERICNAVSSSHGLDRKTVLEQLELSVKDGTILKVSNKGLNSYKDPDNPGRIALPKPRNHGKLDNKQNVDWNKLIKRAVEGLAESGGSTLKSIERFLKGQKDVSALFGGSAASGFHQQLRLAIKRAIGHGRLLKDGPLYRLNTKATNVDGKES"}
{"Strand": "ACCCGGGG", "E-score": 0.177}
{"Strand": "ATTTTCAA", "E-score": -0.179}
{"Strand": "GCTCTGAC", "E-score": -0.0103}
{"Strand": "CGATGCGA", "E-score": 0.163}
{"Strand": "GGTCGTAC", "E-score": -0.0207}
{"Strand": "ATGGACAC", "E-score": -0.0844}
{"Strand": "ATGCGGCG", "E-score": 0.32}
{"Strand": "GACCACGC", "E-score": 0.0445}
{"Strand": "GTGGATAA", "E-score": -0.0517}
{"Strand": "CATCATGC", "E-score": 0.0023}
{"Strand": "AGGTCGTA", "E-score": -0.00886}
{"Strand": "ATACCTAG", "E-score": -0.094}
{"Strand": "CCGCTCGA", "E-score": 0.202}
{"Strand": "CAAAAAAA", "E-score": 0.0235}
{"Strand": "AACGCATC", "E-score": 0.058}
{"Strand": "ACATAGGC", "E-score": -0.144}
{"Strand": "AGGATAGA", "E-score": -0.15}
{"Strand": "CACATGTG", "E-score": 0.0614}
{"Strand": "TTGGGAAA", "E-score": -0.119}
{"Strand": "ACATTTTA", "E-score": 0.104}
{"data": "Block 3", "target": "Ras GTPase-activating protein-binding protein 1, full length (G3BP1, Homo sapiens, UniProt Q13283)", "technique": "RNA Bind-n-Seq", "form": "RNA", "matrix": "in vitro", "concentration": "200 nM", "notes": "whole 134-nt RNA, ends assumed", "together with": "150 mM KCl", "baseline": "input library", "direction": "higher = stronger binding", "UniProt Q13283, sequence (whole entry, looked up)": "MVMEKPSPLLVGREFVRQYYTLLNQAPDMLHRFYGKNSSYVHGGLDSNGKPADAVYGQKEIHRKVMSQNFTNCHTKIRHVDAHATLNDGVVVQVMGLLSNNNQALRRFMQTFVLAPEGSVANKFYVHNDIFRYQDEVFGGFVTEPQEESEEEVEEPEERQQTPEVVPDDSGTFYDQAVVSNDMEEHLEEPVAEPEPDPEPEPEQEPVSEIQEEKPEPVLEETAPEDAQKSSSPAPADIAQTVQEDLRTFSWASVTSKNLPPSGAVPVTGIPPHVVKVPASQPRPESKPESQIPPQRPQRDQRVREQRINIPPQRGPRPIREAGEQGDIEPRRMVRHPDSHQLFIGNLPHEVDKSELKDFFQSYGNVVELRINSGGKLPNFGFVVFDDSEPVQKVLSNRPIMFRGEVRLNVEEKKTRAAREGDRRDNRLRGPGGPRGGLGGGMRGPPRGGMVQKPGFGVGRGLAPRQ"}
{"Strand": "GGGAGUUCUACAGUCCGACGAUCCAAGUCCUGUGCUACACAUCGUAUGUACCGAAUCGGUUUUUUUGGUGGAAAAAGGAAAGUAUUAUGUUACGCCGUUCGGAUCUGCACUUCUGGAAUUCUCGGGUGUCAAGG", "log2 enrichment": -0.986}
{"Strand": "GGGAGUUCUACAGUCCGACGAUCCCUCAAGUCCUGUGCUACACAUCGUAUGUACCGAAUCGGGUUGGGUUGGUUGGAAAGUAUUAUGUUACGCCGUUCGGAUCUGCACUUCCAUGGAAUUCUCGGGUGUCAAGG", "log2 enrichment": 0.232}
{"Strand": "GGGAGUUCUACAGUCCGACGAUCUCAAGUCCUGUGCUACACAUCGUAUGUACCGAAUCGGAAAAAAAGGUUUGGAGGAAAGUAUUAUGUUACGCCGUUCGGAUCUGCACUUCCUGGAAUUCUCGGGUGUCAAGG", "log2 enrichment": -1.34}
{"Strand": "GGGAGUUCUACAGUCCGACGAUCCCUCAAGUCCUGUGCUACACAUCGUAUGUACCGAAUCGGGAGGAGGGAGGGGAAAGUAUUAUGUUACGCCGUUCGGAUCUGCACUUCCAGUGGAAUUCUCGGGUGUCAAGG", "log2 enrichment": 1.17}
{"Strand": "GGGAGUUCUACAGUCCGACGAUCUGGCGCUGUCCUGGACUUGAUGGGGGAUGAAGCCCAGAACCUGACGAGGGGCCGGCAGCAGCUCAAGUGGUGAGUGAUCGAGUGAGCCGCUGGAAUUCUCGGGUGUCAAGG", "log2 enrichment": -0.416}
{"Strand": "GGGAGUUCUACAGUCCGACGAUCCAAGUCCUGUGCUACACAUCGUAUGUACCGAAUCGGGGAAAGGAAAGGGAAAGGGGAAAGUAUUAUGUUACGCCGUUCGGAUCUGCACUUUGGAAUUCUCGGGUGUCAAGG", "log2 enrichment": 0.17}
{"Strand": "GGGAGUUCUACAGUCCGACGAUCUCCUGUGCUACACAUCGUAUGUACCGAAUCGGGGAAAAAGGGGUUUUUGGGGUUUGGGGAAAGUAUUAUGUUACGCCGUUCGGAUCUGCAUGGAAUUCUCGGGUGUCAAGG", "log2 enrichment": 0.749}
{"Strand": "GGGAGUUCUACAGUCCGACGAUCUGGGAGGUGGAUUUUGUUUAUUUUUUUAGCUCAUUUCCAGGGGUGGGAAUGUUUUUUUAAUAUGUGUCAUGAAUAAAGUUGUUUUUGAAAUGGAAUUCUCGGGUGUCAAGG", "log2 enrichment": 0.294}
{"Strand": "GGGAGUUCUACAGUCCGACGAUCUCCUGUGCUACACAUCGUAUGUACCGAAUCAAACCCCCAAACCCCCCCAAACCCCCAAAAAAGUAUUAUGUUACGCCGUUCGGAUCUGCAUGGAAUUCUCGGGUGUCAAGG", "log2 enrichment": -0.134}
{"data": "Block 4", "target": "Max-binding protein MNT, bHLH-zipper, MAX partner unstated (MNT, Homo sapiens, UniProt Q99583, residues 220-300)", "technique": "protein-binding microarray", "form": "double-stranded DNA, one strand shown", "matrix": "in vitro", "concentration": "not given", "notes": "k-mer, scored over probes, only values ≥0.25", "direction": "higher = stronger binding", "Residues (chain)": "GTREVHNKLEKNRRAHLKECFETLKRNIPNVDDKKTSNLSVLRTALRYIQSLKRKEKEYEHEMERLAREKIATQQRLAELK"}
{"Strand": "CCAACCAC", "E-score": 0.273}
{"Strand": "AGCATGTC", "E-score": 0.357}
{"Strand": "CCACCACG", "E-score": 0.35}
{"Strand": "CCCGCACA", "E-score": 0.3}
{"Strand": "CAGTCACG", "E-score": 0.424}
{"Strand": "ATGCGCTC", "E-score": 0.273}
{"Strand": "CACCTCAC", "E-score": 0.257}
{"Strand": "ACGGCACG", "E-score": 0.325}
{"Strand": "CAAACACG", "E-score": 0.358}
{"Strand": "AGCATGAG", "E-score": 0.353}
{"Strand": "CTGCACGC", "E-score": 0.412}
{"Strand": "ACGTGACC", "E-score": 0.452}
{"Strand": "CGAACACG", "E-score": 0.287}
{"Strand": "TCCCACGA", "E-score": 0.312}
{"data": "Block 5", "Molecule": "B1 (IAA28)", "technique": "two-hybrid", "direction": "higher = firmer interaction", "B1": "IAA28 (Arabidopsis thaliana, UniProt Q9XFM0); chain MEEEKRLELRLAPPCHQFTSNNNINGSKQKSSTKETSFLSNNRVEVAPVVGWPPVRSSRRNLTAQLKEEMKKKESDEEKELYVKINMEGVPIGRKVNLSAYNNYQQLSHAVDQLFSKKDSWDLNRQYTLVYEDTEGDKVLVGDVPWEMFVSTVKRLHVLKTSHAFSLSPRKHGKE"}
{"partner": "IAA31 (Arabidopsis thaliana, UniProt Q8H174)", "scale": "baseline: out of 2 tests", "positive tests": 2}
{"partner": "ARF7 1030-1164 (Arabidopsis thaliana, UniProt P93022)", "scale": "baseline: out of 4 tests", "positive tests": 4}
{"partner": "IAA29 (Arabidopsis thaliana, UniProt Q93WC4)", "scale": "baseline: out of 3 tests", "positive tests": 1}
{"partner": "IAA30 (Arabidopsis thaliana, UniProt Q9M1R4)", "setting": "weak activation fusion", "scale": "baseline: out of 4 tests", "positive tests": 2}
{"partner": "ETT (Arabidopsis thaliana, UniProt O23661)", "scale": "baseline: out of 4 tests", "positive tests": 0}
{"note": "A few entries again (block 2):"}
{"Strand": "ACCCGGGG", "E-score": 0.177}
{"Strand": "GACCACGC", "E-score": 0.0445}
{"Strand": "CACATGTG", "E-score": 0.0614}
{"Strand": "CCGCTCGA", "E-score": 0.202}
{"Strand": "ACATTTTA", "E-score": 0.104}
{"Strand": "ACATAGGC", "E-score": -0.144}
